Measured values of several laboratories.
A part holds a random share of what one study measured. Several values in a cell are separate wells, animals, samples, runs or records. Substitutions count along the parent as printed.

Study 1
Target: CCND3, cyclin fold, Cln2 fusion (human)
Technique: yeast growth competition, sequencing
Sample: yeast
Setting: weak parent motif
Reference: not given
Direction: higher = stronger binding
Starting sequence: E2F1 docking peptide (human); PPVKRRLDLETDH; partner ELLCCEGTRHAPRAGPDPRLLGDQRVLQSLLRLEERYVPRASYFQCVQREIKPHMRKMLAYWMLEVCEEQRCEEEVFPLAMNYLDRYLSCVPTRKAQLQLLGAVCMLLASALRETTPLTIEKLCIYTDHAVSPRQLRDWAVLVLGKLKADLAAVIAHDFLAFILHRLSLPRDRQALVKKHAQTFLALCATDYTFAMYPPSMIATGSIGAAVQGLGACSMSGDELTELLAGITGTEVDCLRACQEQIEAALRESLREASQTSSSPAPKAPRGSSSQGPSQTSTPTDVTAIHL
| Variant | normalised enrichment score |
| --- | --- |
| V3G | 0.0707 |
| R5Y | 0.102 |
| L7S | 0.126 |
| P2Q | 0.0556 |
| P2V | 0.0886 |
| E10N | 0.189 |
| D12E | 0.172 |

Study 2
Target: RNA binding protein fox-1 homolog 2, RRM domain, GST-SBP tag (RBFOX2, Homo sapiens, UniProt O43251-10, residues 100-194)
Technique: RNA Bind-n-Seq
Molecule type: RNA
Sample: in vitro
Concentration: 365 nM
Setting: natural RNA segment, single round, ends assumed
Reference: no-protein control
Direction: higher = stronger binding
Constant ends, left off below: GGGAGUUCUACAGUCCGACGAUC … UGGAAUUCUCGGGUGCCAA
Construct (chain): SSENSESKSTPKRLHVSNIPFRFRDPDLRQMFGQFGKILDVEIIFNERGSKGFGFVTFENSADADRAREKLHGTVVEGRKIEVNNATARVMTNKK
| Oligonucleotide | RBNS enrichment (R) |
| --- | --- |
| ACAUAAUAAUAUGUUGCAUGCAGUUAUAUUUUCUAUUUAGUCUGUAUAUUUUGUUCUUCAUAGUCUGUUUUUUCUAGCAUGCUUGAUUUAGGAGAGAAUAAAGGGCUAUA | 15.2 |
| UGAUGAUGUCACCAGUGCUGCCUCAGAUGAUACAGAGACAGGGAGUUUCAGGUGAACUUCUUCAGCAGAAUAAGGUGAUGCCACUCUGACCUUUGCUGAGCUCAGUGACU | 0.339 |
| UAAAGCUUUUGUUAUAUAUUAAAUGUAAACUGAAAGGAAUGUAAACAUAUGUAUUGUUAAUUAUAAAUAUAGAUAAGUAAUGACAUAAUAGAUGAAAAAGUCUUAUUCAG | 1.02 |
| GCCCCUUGUUCAUUCUCCUUCCUUUUUCCUCCCGCUUCCCUCUCCAUGAAGUGAUUCUGUUGACAAUAAUGUAUACUGCGCGUUCUCUUCACUGGUUUAUCUGCAGAAAU | 0.481 |
| AUGCCACCCCCCAGCGGGUACCAGAGGAAAGCUGGCAGCAGGCGCCUCCUCCCCCAACGCAUCCCAGCCAGUGCCAUGUCCUCUGCAGGUGGAGUUACUGGCCUACUCCU | 0.828 |
| UAUGUUGAUGUAGCAUCAUUUUGUGGAUAGGAAAAAAAAUGUUUGACCUUCAGAUAUUUUCUACUUAAAAAAUUGUGGAUGAACGCCCUAUCUCCCUCCCACAGUGGAGU | 0.393 |
| CUGCCAUCCCAUAGAUUCUGAAGGGCUCCUCUCCUCCGGUCACGCUGACCAACUGCCAAGCUCGCUUUGCUGCCCAGAGCACUGUCCCCUCACAGCAAGCACAAGUUGUC | 0.711 |

Study 3
Target: RING finger protein unkempt homolog, zinc fingers 1-6, GST-SBP tag (UNK, Homo sapiens, UniProt Q9C0B0, residues 30-357)
Technique: RNA Bind-n-Seq
Molecule type: RNA
Sample: in vitro
Concentration: not given
Setting: RNA with constant flanks, human-mouse chimeric sites, ends assumed
Reference: input RNA pool
Direction: higher = stronger binding
Constant ends, left off below: GGGAGUUCUACAGUCCGACGAUC … CAACAGAGGAUUGAGCAUCA
Construct (chain): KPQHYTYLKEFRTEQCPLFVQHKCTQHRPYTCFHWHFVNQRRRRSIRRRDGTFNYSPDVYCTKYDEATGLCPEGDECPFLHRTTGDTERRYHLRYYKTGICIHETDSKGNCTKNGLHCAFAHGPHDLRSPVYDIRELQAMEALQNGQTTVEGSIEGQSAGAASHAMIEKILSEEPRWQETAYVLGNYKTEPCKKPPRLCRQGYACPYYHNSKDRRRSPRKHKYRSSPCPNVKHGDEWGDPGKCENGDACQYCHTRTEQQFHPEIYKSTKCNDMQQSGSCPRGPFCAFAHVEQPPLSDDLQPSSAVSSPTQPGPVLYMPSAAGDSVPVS
| Oligonucleotide | bound/input enrichment [ratio] |
| --- | --- |
| GCAAAGGAUGAUGAGGCGGCAGCUGUUGCCCUUUCCUCCCUGAUUCAUGCUUUGGAUGAGUUAAACAUGGUCGCCAUCGUCCGAUAUGCUUAUGACAAAAGAGCUAAUCCUCAAGUUGGU | 0.149 |
| GUACUGCAGCAGCAGGGCAAGCUGCAGGAAGCUCUGAUGCAUUAUAAGGAGGCUAUUCGAAUCAGUCCUACAUUUGCUGAUGCCUACUCUAAUAUGGGAAACACUCUAAAGGAGAUGCAG | 0.291 |
| AAGCAACGCAAACUUGAAACAAUUCGUUAUCUUGCAGCCUCAGUGUUCACUUGCUUGGCGAUAGCAUUGGGGUUUUAUAGGUUCUGGAAGGAGAACUUUAAUGCUCACUGCCGCUGCUGC | 0.153 |
| GAUCCACAGUGGUCUGAGGAGCAACUCAUUGCUGCAAAAUUCUGUUUUGCUGGCCUUGUUAUAGGGCAGACUGAAGUGGAUAUCAUGAGUCAUGCCACACAAGCUAUAUUUGAAAUACUG | 0.232 |
| UUAAUCCCCUUUACUGCUCCCCCACUUGUCAUGCUGAUAACAAAGUCUUAUAUUCCCGUCCUAGCUUUCACUCAGAUGGCUUAUGGAGCCGGUUUCCUAGCUUUCUUGGGAGGGAUCAGA | 0.282 |
| AAAGAACCUCUCUCUGAUGAAGAUGAGGAAGACAAUGAUGAUGUUGAACCCAUUUCUGAAUUUAGAUUUGUGCCCAGUGAUAAGUCAGCAUUGGAGGCGAUGUUCACAGCAAUGUGUGAG | 1.46 |
| GCGGCAGAAUCAUGGUGGACAUAAUGCAGCUCCCCAAAGCGCGCGUCAACGCCGGCAUGUUACCACAGUAUAUCGACCGGCCCGUGUGCUUCGUGGGGAAGCUGGAAAAGAUUCAUCCCA | 0.0795 |

Single results of other studies
| Substance | target | assay | test system | conditions | scale | measurement | value |
| --- | --- | --- | --- | --- | --- | --- | --- |
| PhoQ, residues 284 288 289 292 302 303 ASTSDA | PhoP, residues 12 14 15 18 19 LWHCS (Escherichia coli, UniProt P23836) | Sort-seq, refers to: YFP reporter | E. coli | PhoQ-PhoP variant library, added: 10 µM Mg2+ | reference: high Mg2+ state, higher = stronger signaling | fold induction | 15.9 and 25.6 |

Excerpt of the above (study 2):
| Oligonucleotide | RBNS enrichment (R) |
| --- | --- |
| UAAAGCUUUUGUUAUAUAUUAAAUGUAAACUGAAAGGAAUGUAAACAUAUGUAUUGUUAAUUAUAAAUAUAGAUAAGUAAUGACAUAAUAGAUGAAAAAGUCUUAUUCAG | 1.02 |
| GCCCCUUGUUCAUUCUCCUUCCUUUUUCCUCCCGCUUCCCUCUCCAUGAAGUGAUUCUGUUGACAAUAAUGUAUACUGCGCGUUCUCUUCACUGGUUUAUCUGCAGAAAU | 0.481 |
| AUGCCACCCCCCAGCGGGUACCAGAGGAAAGCUGGCAGCAGGCGCCUCCUCCCCCAACGCAUCCCAGCCAGUGCCAUGUCCUCUGCAGGUGGAGUUACUGGCCUACUCCU | 0.828 |
